# Measured values of several laboratories.
# Parts stem from different laboratories: compare values within a part only.

# Block 1 — method: universal PBM; molecule type: double-stranded DNA, one strand shown; medium: in vitro; concentration: 600 nM; reading: higher = stronger binding
# Target: Sal-like protein 4, full length isoform A (SALL4, Homo sapiens, UniProt Q9UJQ4, residues 1-1053)
# Sequence of UniProt Q9UJQ4 (whole entry, looked up): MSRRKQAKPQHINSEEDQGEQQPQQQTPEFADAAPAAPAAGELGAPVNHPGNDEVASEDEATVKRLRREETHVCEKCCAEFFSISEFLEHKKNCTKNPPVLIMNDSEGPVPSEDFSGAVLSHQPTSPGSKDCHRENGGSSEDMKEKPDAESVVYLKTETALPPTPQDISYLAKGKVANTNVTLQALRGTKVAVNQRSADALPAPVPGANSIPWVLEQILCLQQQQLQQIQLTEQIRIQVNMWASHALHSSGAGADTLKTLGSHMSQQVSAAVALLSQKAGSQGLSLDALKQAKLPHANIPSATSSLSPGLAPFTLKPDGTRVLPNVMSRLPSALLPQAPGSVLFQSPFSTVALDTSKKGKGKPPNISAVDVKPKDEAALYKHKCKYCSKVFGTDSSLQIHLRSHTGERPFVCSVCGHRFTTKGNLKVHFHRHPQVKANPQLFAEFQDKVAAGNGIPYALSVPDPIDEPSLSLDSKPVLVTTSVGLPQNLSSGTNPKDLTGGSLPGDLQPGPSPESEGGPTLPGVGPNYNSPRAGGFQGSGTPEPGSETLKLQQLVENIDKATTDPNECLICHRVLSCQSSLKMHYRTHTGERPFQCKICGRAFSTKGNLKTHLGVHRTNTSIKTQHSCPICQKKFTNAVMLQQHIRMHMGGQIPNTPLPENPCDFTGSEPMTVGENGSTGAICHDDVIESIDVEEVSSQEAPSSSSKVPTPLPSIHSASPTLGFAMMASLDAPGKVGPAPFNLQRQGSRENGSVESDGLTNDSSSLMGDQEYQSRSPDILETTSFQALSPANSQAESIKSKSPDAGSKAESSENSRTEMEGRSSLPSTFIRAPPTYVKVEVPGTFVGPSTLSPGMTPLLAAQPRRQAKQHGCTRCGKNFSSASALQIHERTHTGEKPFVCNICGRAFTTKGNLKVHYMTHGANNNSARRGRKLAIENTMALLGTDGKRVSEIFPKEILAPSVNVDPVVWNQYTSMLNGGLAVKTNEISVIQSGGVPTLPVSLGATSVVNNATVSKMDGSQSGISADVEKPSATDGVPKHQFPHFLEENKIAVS
# Setting: 8-mer, flanks averaged, mean of replicates
Sequence,E-score
TCCCTTAA,0.143
CGTCGGAA,-0.0213
GGGAACCA,-0.25
CATTAACG,0.12
TGCGAACA,0.0595
GTGACACA,0.0775
GACAACGA,-0.0185

# Block 2 — method: RNA Bind-n-Seq; molecule type: RNA; medium: in vitro; concentration: not given; relative to: input RNA pool; reading: higher = stronger binding
# Target: RING finger protein unkempt homolog, zinc fingers 1-6, GST-SBP tag (UNK, Homo sapiens, UniProt Q9C0B0, residues 30-357)
# Setting: RNA with constant flanks, human and mouse sites, ends assumed
# Shared flanks, not repeated: GGGAGUUCUACAGUCCGACGAUC … CAACAGAGGAUUGAGCAUCA
# Construct (chain): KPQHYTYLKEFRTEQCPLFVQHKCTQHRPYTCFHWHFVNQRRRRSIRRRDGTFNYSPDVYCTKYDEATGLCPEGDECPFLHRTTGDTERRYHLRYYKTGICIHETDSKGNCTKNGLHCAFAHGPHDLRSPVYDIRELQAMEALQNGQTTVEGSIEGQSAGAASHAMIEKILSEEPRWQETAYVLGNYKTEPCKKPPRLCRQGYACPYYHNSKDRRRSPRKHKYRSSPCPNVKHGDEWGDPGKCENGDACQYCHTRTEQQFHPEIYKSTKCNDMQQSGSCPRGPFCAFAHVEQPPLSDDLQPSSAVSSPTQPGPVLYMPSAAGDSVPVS
Sequence,bound/input enrichment [ratio]
AAGCUUGGUGGGACAAUUGAUGACUGUGAGUUGGUGGAAGGGCUGGUUCUCACCCAAAAAGUGUCAAAUUCUGGCAUAACCAGAGUUGAAAAGGCCAAGAUUGGGCUUAUUCAGUUUUGC,0.0949
AUAGAAACCUUGAUUGGCAAAAAGCAGCAGAUCUCUCUUGCCACCCAGAUGGUUAGGAUGAUUCUGAAGAUUGAUGACAUCCGUAAGCCUGGAGAAUCUGAAGAAUAAACUGUACCAUUU,0.245
GACAUUCAGGAUGAGAUGGGCAGGCACGAAGUGGGCCACAUCGACAACUCCAUGAAGAUCCCGCUGAACAAUGGGGCAGGCUGCCGCUUCGAGGGGCAGUUCAGCAUCAACAAGGUCCCC,0.0328
GGUGCCGGGAGCAAAGAACGUAGGUACAUCCAGUUCUCAUUAUGCAUCAGAAAAAUGAAAAAACAGAAGAAAAUUCUAUGGAAGAAAGGAAUUCACUUAGCCUUUUCUGAGAAAUGGAAU,0.322
AAGAACACACCGGUCAAAUCUUCAGAAGGAUCUCAGCAAAAGAGCCCAUCAUAUCCCAGUGACUCCACAACCAUGUUCACCAUAGAGGGCAUGCAUUGUAAAUCGUGUGUGUCCAAUAUU,0.251
GGAGCACUCAAAUCAGUGGGAAUUACAAUUUUUCUUUUUUGAAAAAAGACACUUUUUAAAAAAUUUUAUUUAUUUAAUGUAUGAGUGCUCUGCUGCAUAUACAUCUGCCUGCCUGAAGAA,1.4
AUAAUAGCAAAACUUCAAGCCAAAGUUCAUGAAUCAAAUAAAUGCCUUGAAAAAACAAAAGAGACAAUUCAAGUACUUCAGGACAAAGUUGCUUUAGGAGCUAAGCCAUAUAAAGAAGAA,0.472

# Block 3 — method: RNA Bind-n-Seq; molecule type: RNA; medium: in vitro; concentration: 365 nM; relative to: no-protein control; reading: higher = stronger binding
# Target: RNA binding protein fox-1 homolog 2, RRM domain, GST-SBP tag (RBFOX2, Homo sapiens, UniProt O43251-10, residues 100-194)
# Setting: natural RNA segment, single round, ends assumed
# Shared flanks, not repeated: GGGAGUUCUACAGUCCGACGAUC … UGGAAUUCUCGGGUGCCAA
# Construct (chain): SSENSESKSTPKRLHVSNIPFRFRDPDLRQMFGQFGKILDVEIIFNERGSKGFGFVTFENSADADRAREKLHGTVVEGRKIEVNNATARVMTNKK
Sequence,RBNS enrichment (R)
GAAAAUCUGCUCUGUGGAAAGAAAGAACUGUCUCUACCAGGGUCAAGAGCAUGAACGCAUCAAUAGAAAGAACUCGGGGAAACAUCCCAUCAACAGGACUACACACUUGU,13.2
CUGAGGAAGUGUGGCUUGCUAGUCUGUUACGUUAACAUGCUUUUCUAAAAUUGCUUCACGUGUUAAUUCAUUUACUCCUGCAUUCAUUGACUGUUUUUGUUCUUUUCCAU,0.577
UUAUUCAUGAGAUUUGUACAAACCCUAUACCGGAAUGGAUGCUUCCCUUCCACCUCCCUGAAAUGUACGUGGAGCCACUCAGAACACAACUGUAUCACUGAGGUAACUCC,0.235
AGAGACUUGAGAGGAACUGUCCCUCCUCCCUCAUGCUUCUCCUCAUCCCUUCAAGCUGGUUGAAGAGAGUAGGCAGGGGCGGGGCCCCGAGGUGCUUCAACCCCACCUAC,0.405
AACCCAAAAAUUACAGUACCAAAUGAUUGACUCAGGAUUGUUUUUCCCAUAUUGAUAUGCUGGCAAUAUAGGAUGGUAUGUGGUGAAGAAGACUAAUGCAGGUGGUUGAA,2.01
UGCAUUUAACAUUCAUAGCCUACAACCACAGACGUGUCUGGGGGAGCCUGGCAAGGCGUUCCUCGUCACCAUCGUGUUUGCAAAGGUUCAAAAAACAAAAAUCAAAAAAA,0.504
AGCCCUCUGUCACUUGACACCCUUCUAGCCUUGUUGGAAGGGUUUUCAGGGAGAUGGGGGCACUAUGGUUGCCCAAGACCAUAAACCCUCUUGUAGUCAGGCAGUAUAGU,0.256
AUCAUCUGCUUCUUUGAAGGAGUAAAUGUGUUUUGUUCCUAGGGCCAGAGGAGCUUGUCUUCCUUGUCCUCUGUUCCCACCCUCCCCUGAACAGAACCCAGCCCAUAAGA,0.471

# Mixed results
Molecule,target,test,system,setting,scale,endpoint,value
"PhoQ, residues 284 288 289 292 302 303 SLCLSL","PhoP, residues 12 14 15 18 19 HEGLL (Escherichia coli, UniProt P23836)","Sort-seq, measured: YFP reporter",E. coli,"PhoQ-PhoP variant library, added: 10 µM Mg2+","relative to: high Mg2+ state, higher = stronger signaling",fold induction,6.73

# Some of these lines once more (block 3):
Sequence,RBNS enrichment (R)
AGCCCUCUGUCACUUGACACCCUUCUAGCCUUGUUGGAAGGGUUUUCAGGGAGAUGGGGGCACUAUGGUUGCCCAAGACCAUAAACCCUCUUGUAGUCAGGCAGUAUAGU,0.256
AGAGACUUGAGAGGAACUGUCCCUCCUCCCUCAUGCUUCUCCUCAUCCCUUCAAGCUGGUUGAAGAGAGUAGGCAGGGGCGGGGCCCCGAGGUGCUUCAACCCCACCUAC,0.405
CUGAGGAAGUGUGGCUUGCUAGUCUGUUACGUUAACAUGCUUUUCUAAAAUUGCUUCACGUGUUAAUUCAUUUACUCCUGCAUUCAUUGACUGUUUUUGUUCUUUUCCAU,0.577
UGCAUUUAACAUUCAUAGCCUACAACCACAGACGUGUCUGGGGGAGCCUGGCAAGGCGUUCCUCGUCACCAUCGUGUUUGCAAAGGUUCAAAAAACAAAAAUCAAAAAAA,0.504
